Measured values from different studies.
Each line is one published result; not all experiments were run side by side. ± gives the spread as reported.

`CC(C)C[C@H](NC(=O)[C@H](CCC(N)=O)NC(=O)[C@H](CCCNC(=N)N)NC(=O)[C@@H]1CCCN1C(=O)[C@@H](NC(=O)CNC(=O)[C@H](CC(C)C)NC(=O)[C@H](Cc1c[nH]c2ccccc12)NC(=O)[C@H](CC(=O)O)NC(=O)[C@H](CCC(N)=O)NC(=O)[C@H](CC(N)=O)NC(=O)[C@H](CCCNC(=N)N)NC(=O)[C@@H]1CCCN1C(=O)CNC(=O)[C@H](CCC(=O)O)NC(=O)[C@H](CC(C)C)NC(=O)[C@H](C)NC(=O)CNC(=O)[C@@H](NC(=O)[C@H](C)N)C(C)C)C(C)C)C(=O)O`: “antigen dose ratio” 20 fold (CD8+ T cell priming, intracellular cytokine staining, refers to: IFNγ; C57BL/6J Batf3-/- mouse; 10 µg; reference: unmodified antigen over compound conjugate).
For `CC(C)C[C@H](NC(=O)[C@H](CC(N)=O)NC(=O)[C@@H](NC(=O)[C@H](Cc1ccccc1)NC(=O)[C@H](CC(C)C)NC(=O)[C@@H]1CCCN1C(=O)[C@H](C)NC(=O)[C@@H](N)Cc1ccccc1)[C@@H](C)O)C(=O)O`, “IFN-γ+ CD8+ T cells” read 1.04% (intracellular cytokine staining; C57BL/6 mouse, HSV-1 infected, spleen; 0.8 µg/mL, 8 dpi, 6 h stimulation, pulsed fibroblasts).
`C=C(NC(=O)C(=C)NC(=O)c1csc(C2=NC3c4csc(n4)C4NC(=O)c5csc(n5)C(C(C)(O)C(C)O)NC(=O)C5CSC(=N5)C(=CC)NC(=O)C(C(C)O)NC(=O)c5csc(n5)C3(CC2)NC(=O)C(C)NC(=O)C(=C)NC(=O)C(C(C)CC)NC2C=Cc3c(C(C)O)cc(nc3C2O)C(=O)OC4C)n1)C(N)=O` (centres unmarked): “IC50 fold change” > 10 fold (protein synthesis, inhibitor, coupled transcription-translation; Escherichia coli S30 extract; reference: thiostrepton A).
Under “α4β7+ CCR9+ cells”, `CC[C@H](C)[C@H](NC(=O)[C@@H](NC(=O)[C@H](CC(=O)O)NC(C)=O)[C@@H](C)O)C(=O)N[C@@H](CCCNC(=N)N)C(=O)N[C@@H](CC(C)C)C(=O)N[C@@H](CC(C)C)C(=O)N[C@@H](Cc1ccccc1)C(=O)N[C@@H](CCC(N)=O)C(=O)N[C@@H](CC(C)C)C(=O)N[C@@H](CCSC)C(=O)N[C@@H](CCCNC(=N)N)C(=O)N1CCC[C@H]1C(=O)N1CCC[C@H]1C(=O)N[C@@H](CC(N)=O)C(=O)N[C@@H](CCSC)C(=O)N[C@H](C(=O)N1CCC[C@H]1C(=O)N[C@@H](C)C(=O)N[C@H](C(=O)N[C@@H](CC(N)=O)C(=O)N[C@@H](C)C(N)=O)C(C)C)[C@@H](C)O` is recorded as 0% (refers to: HA-41 tetramer; antigen-experienced tetramer+ CD4 T cells, healthy adults, HLA-DRB1*0101; dose not given).
With `CC[C@H](C)[C@@H]1NC(=O)[C@@H](NC(=O)CNC(=O)c2ccc(F)cc2)CSSC[C@@H]2NC(=O)[C@H](C)NC(=O)CNC(=O)[C@@H]3CCCN3C(=O)[C@@H]3CSSC[C@@H](C(=O)NCC(=O)O)NC(=O)[C@H](Cc4ccc(O)cc4)NC(=O)CNC(=O)[C@H](CC(N)=O)NC(=O)CNC(=O)[C@H](CCCNC(=N)N)NC(=O)[C@H](CSSC[C@H](NC(=O)[C@H](CCCNC(=N)N)NC(=O)[C@H](Cc4ccccc4)NC(=O)[C@H](CC(C)C)NC(=O)[C@H](CC(C)C)NC(=O)[C@H]([C@@H](C)O)NC(=O)CNC(=O)[C@H](CC(C)C)NC(=O)[C@H](CC(=O)O)NC(=O)[C@H]([C@@H](C)O)NC(=O)[C@H](CCCNC(=N)N)NC(=O)[C@H](CCSC)NC(=O)[C@H](CC(N)=O)NC(=O)[C@H](CC(C)C)NC1=O)C(=O)N[C@@H](CCCNC(=N)N)C(=O)N[C@@H](CCCNC(=N)N)C(=O)N[C@@H](CC(=O)O)C(=O)N[C@@H](CO)C(=O)N[C@@H](CC(=O)O)C(=O)N3)NC(=O)[C@H]([C@@H](C)CC)NC2=O` [fluorine-18 labelled] the tumour uptake was 1.9 ± 0.5 %ID/g (PET; mouse, BXPC-3 xenograft; intravenous, 1 h).
For `Cc1ccc2c(n1)c(-c1cccc(S(C)(=O)=O)c1)c(C)n2C/C(F)=C/CN`, collagen content read “no effect” (refers to: hydroxyproline; male C57BL/6J mice myocardial infarction, heart; oral, 14 mg/kg daily, 28 days; reference: vehicle).
`CCN(Cc1ccccc1)C(=O)CCc1nc(CN2CCN(C(=O)Cc3ccc(OC)c(OC)c3)CC2)no1` — result for “action potential amplitude”: 106 ± 1.14 mV (current clamp; L4-L6 DRG neurons, rat CCI model; 1 µM, with: 500 pA current injection).
`CC(C)C[C@@H]1NC(=O)[C@H](C(C)C)NC(=O)[C@H](CO)NC(=O)CNC(=O)CNC(=O)[C@H](CCCNC(=N)N)NC(=O)[C@@H]2CCCN2C(=O)[C@@H](NC(=O)CC[C@H](NC(=O)c2ccc(N(C)Cc3cnc4nc(N)nc(N)c4n3)cc2)C(=O)O)C(C)(C)SSC[C@@H](C(=O)O)NC(=O)CNC(=O)[C@H]([C@@H](C)O)NC(=O)[C@H](C(C)C)NC1=O` has a liver weight of 5.88 ± 0.069 g (rat adjuvant arthritis; iv, 0.05 mg/kg once daily, day 14).
`O=C(O)COc1c2c(c(OCC(=O)O)c3c1C1CC3c3cc4c(cc31)C1CC4c3ccccc31)C1CC2c2cc3c(cc21)C1CC3c2ccccc21` — result for “maximal dye leakage”: 78% (liposomes; 150 µM, 30 min).
`COc1ccc([N+](=O)[O-])cc1NC(=O)CCC(=O)[O][Zn][O]C(=O)CCC(=O)Nc1cc([N+](=O)[O-])ccc1OC.c1ccncc1` has an inhibition of 65% (ABTS scavenging; 31.25 µg/mL).
For `COc1ccc(-c2c(C#N)c(N)nc3c2CCc2nc4c(cc2-3)c(C)nn4-c2ccccc2)cc1`, the EC50 was > 100 µg/mL (ABTS scavenging, absorbance; 6 min).
For `C[C@H](NC(=O)[C@H](CCC(N)=O)NC(=O)[C@H](C)NC(=O)[C@H](CCCCN)NC(=O)[C@H](CCC(N)=O)NC(=O)[C@H](C)NC(=O)[C@H](CCCCN)NC(=O)[C@H](CCC(N)=O)NC(=O)[C@H](C)NC(=O)[C@H](CCC(N)=O)NC(=O)[C@H](CCCCN)NC(=O)[C@H](C)NC(=O)[C@H](CCC(N)=O)NC(=O)[C@H](CCCCN)NC(=O)[C@H](C)NC(=O)[C@H](CCC(N)=O)NC(=O)[C@H](C)NC(=O)[C@H](CCCCN)NC(=O)[C@H](CCC(N)=O)NC(=O)[C@H](C)NC(=O)[C@H](CCCCN)NC(=O)[C@H](CO)NC(=O)[C@H](Cc1ccc(O)cc1)NC(=O)CNC(=O)CNC(=O)CN)C(=O)N[C@@H](CCCCN)C(=O)N[C@@H](CCC(N)=O)C(=O)N[C@@H](C)C(=O)N[C@@H](CCCCN)C(=O)N[C@@H](CCC(N)=O)C(=O)O`, the binding ratio was 0.26 (human IAPP fibrils; 1 h, room temperature; reference: 1 M NaCl over PBS).
`CC(=O)N[C@@H](Cc1c[nH]c2ccccc12)C(=O)NCC(=O)N[C@@H](C)C(=O)N[C@H]1CSCC(=O)Nc2ccc(cc2)N=Nc2ccc(c(S(=O)(=O)O)c2)-c2ccc(cc2S(=O)(=O)O)N=Nc2ccc(cc2)NC(=O)CSC[C@@H](C(=O)N[C@@H](CCCNC(=N)N)C(=O)N[C@@H](CCC(=O)O)C(=O)N[C@@H](C)C(=O)N[C@@H](C)C(=O)N[C@@H](C)C(=O)N[C@@H](CCCNC(=N)N)C(=O)N[C@@H](CCC(=O)O)C(=O)N[C@@H](C)C(=O)N[C@@H](CCC(N)=O)C(N)=O)NC(=O)[C@H](C)NC(=O)[C@H](C)NC(=O)[C@H](CCC(=O)O)NC(=O)[C@H](CCCNC(=N)N)NC(=O)[C@H](C)NC(=O)[C@H](C)NC(=O)[C@H](C)NC(=O)[C@H](CCC(=O)O)NC(=O)[C@H](CCCNC(=N)N)NC(=O)[C@H](C)NC(=O)[C@H](C)NC(=O)[C@H](C)NC(=O)[C@H](CCC(=O)O)NC1=O`: “thermal relaxation half-life” 10.6 ± 1.1 min (cis-to-trans reversion, UV-Vis absorbance; 10 mM phosphate buffer; pH 7.0, 20 °C, with: 365 nm irradiation).
`C[C@H](NC(=O)[C@H](CCC(N)=O)NC(=O)[C@H](CCCCN)NC(=O)[C@H](C)NC(=O)[C@@H]1CCCN1C(=O)[C@H](C)NC(=O)[C@H](CCCCN)NC(=O)[C@H](CCC(N)=O)NC(=O)[C@H](C)NC(=O)[C@H](CCCCN)NC(=O)[C@H](CCC(N)=O)NC(=O)[C@@H]1CCCN1C(=O)[C@H](CCC(N)=O)NC(=O)[C@H](CCCCN)NC(=O)[C@H](C)NC(=O)[C@H](CCC(N)=O)NC(=O)[C@H](CCCCN)NC(=O)[C@H](C)NC(=O)[C@@H]1CCCN1C(=O)[C@H](C)NC(=O)[C@H](CCCCN)NC(=O)[C@H](CCC(N)=O)NC(=O)[C@H](C)NC(=O)[C@H](CCCCN)NC(=O)[C@H](CO)NC(=O)[C@H](Cc1ccc(O)cc1)NC(=O)CNC(=O)CNC(=O)CN)C(=O)N[C@@H](CCCCN)C(=O)N[C@@H](CCC(N)=O)C(=O)O` has a binding ratio of 0.01 (rVλ6Wil fibrils; 1 h, room temperature, 0.05% Tween-20; reference: 1 M NaCl over PBS).
With `CC[C@H](C)[C@H](NC(=O)[C@H](Cc1ccc(O)cc1)NC(=O)[C@@H]1CCCN1C(=O)[C@H](CCCNC(=N)N)NC(=O)[C@H](CCCNC(=N)N)NC(=O)[C@H](CO[C@@H]1O[C@H](CO[C@H]2O[C@H](CO)[C@H](O)[C@H](O)[C@H]2O)[C@@H](O)[C@H](O)[C@H]1O)NC(=O)[C@H](CCCCN)NC(=O)[C@H](CC(N)=O)NC(=O)[C@H](CCC(=O)O)NC(=O)[C@H](Cc1ccc(O)cc1)NC(=O)[C@H](CC(C)C)NC(=O)[C@@H]1CCC(=O)N1)C(=O)N[C@@H](CC(C)C)C(=O)O` the ED50 was 0.0004 nmol (6 Hz seizure test; CF-1 mouse; intracerebroventricular, 30 min, 32 mA corneal stimulation).
Under “DPPH radical scavenging”, `O=C(O)/C=C/c1ccc(O)cc1` is recorded as 76.1 ± 1.2% (500 µg/mL).
`CC(C)[C@H](N)C(=O)N[C@@H](Cc1ccc(O)cc1)C(=O)N[C@@H](CCCCN)C(=O)N[C@H](C(=O)N[C@@H](CCCCN)C(=O)N[C@H](C(=O)N[C@@H](CCCCN)C(=O)N[C@H](C(=O)N[C@@H](CCCCN)C(=O)N[C@H](C(=O)N[C@@H](CCCCN)C(=O)N[C@H](C(=O)N[C@@H](CCCCN)C(=O)N[C@H](C(=O)N[C@@H](CCCCN)C(=O)N[C@H](C(=O)N[C@@H](CCCCN)C(=O)N[C@H](C(=O)O)[C@@H](C)O)C(C)C)[C@@H](C)O)C(C)C)[C@@H](C)O)C(C)C)[C@@H](C)O)C(C)C` gave a binding ratio of 0.21 (Aβ(1-40) fibrils; 1 h, room temperature; reference: 1 M NaCl over PBS).
